# Experimental data collected from several papers.
# Each numbered part is a random draw from the data of one study; scales do not carry over between parts. Positions count from the first letter of the parent shown.

# Study 1
# Target: Centromere-binding protein 1, full length, N-terminal tag (CBF1, Saccharomyces cerevisiae, UniProt P17106, residues 1-351)
# UniProt P17106, sequence (whole entry, looked up): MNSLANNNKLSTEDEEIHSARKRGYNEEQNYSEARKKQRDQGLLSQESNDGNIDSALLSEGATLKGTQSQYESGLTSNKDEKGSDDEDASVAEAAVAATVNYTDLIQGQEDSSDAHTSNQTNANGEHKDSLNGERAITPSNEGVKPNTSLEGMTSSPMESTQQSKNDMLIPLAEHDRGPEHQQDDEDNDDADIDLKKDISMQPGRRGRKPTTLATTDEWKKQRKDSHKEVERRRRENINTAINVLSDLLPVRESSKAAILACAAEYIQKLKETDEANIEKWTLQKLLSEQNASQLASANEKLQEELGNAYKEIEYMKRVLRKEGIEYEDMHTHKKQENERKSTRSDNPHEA
# Technique: protein-binding microarray
# Molecule type: double-stranded DNA, one strand shown
# Matrix: in vitro
# Concentration: 0.8 µM
# Setting: whole 60-bp probe, no competitor
# Direction: higher = stronger binding
# Constant ends, left off below: … GTCTTGATTCGCTTGACGCTGCTG
Strand,fluorescence intensity [a.u.]
GAAATACCTACGTATCTGATGTGTATACTTCTCTAG,492
CTACCGCACACGTGTCACGTGATAAGCACTCTTTTC,36500
GAATGCTGTATTATTATCGTGATTTCTCGATTATAG,525
CTACAACTCGTGTCTCACGAGAGCGCCACTTAATTC,560
GAAAAGTTCGTGCGTCACCTGCACCAGCATATTTAG,950
CTATTTTCGTTATCGCGTGGCACGATATCATGCTTC,989
GAAAAAGTTCAAATCCACGTTATTGAGAGTAGATAG,548
CTACATCATGGTACTACCGTGACGGAGAATACGTTC,660

# Study 2
# Target: ABI1, truncated, D143A, DHFR fusion (Arabidopsis thaliana)
# Technique: DHFR PCA, deep sequencing
# Matrix: yeast
# Setting: methotrexate growth selection, single substitutions
# Added: (+)-ABA 0 µM
# Baseline: wild-type fitted maximum
# Direction: higher = stronger binding
# Parent: PYL1, truncated, DHFR fusion (Arabidopsis thaliana); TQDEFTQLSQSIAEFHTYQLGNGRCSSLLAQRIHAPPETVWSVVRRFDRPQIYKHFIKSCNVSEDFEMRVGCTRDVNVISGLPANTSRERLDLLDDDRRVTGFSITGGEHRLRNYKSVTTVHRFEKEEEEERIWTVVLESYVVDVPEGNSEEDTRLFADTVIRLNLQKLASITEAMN; partner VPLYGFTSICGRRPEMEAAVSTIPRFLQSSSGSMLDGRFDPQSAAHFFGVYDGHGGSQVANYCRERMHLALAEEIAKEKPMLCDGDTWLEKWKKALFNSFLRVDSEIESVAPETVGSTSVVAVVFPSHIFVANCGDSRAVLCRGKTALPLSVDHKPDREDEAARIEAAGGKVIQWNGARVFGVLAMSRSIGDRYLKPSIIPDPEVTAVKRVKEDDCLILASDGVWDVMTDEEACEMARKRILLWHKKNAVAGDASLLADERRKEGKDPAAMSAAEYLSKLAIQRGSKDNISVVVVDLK
Substitution,relative binding score
V137I,-2.85%
I162S,6.6%
L93I,58.7%
E139I,-16.5%
S11Y,26.6%
G148C,5.88%
S9Q,56.4%
D95M,-4.79%

# Study 3
# Target: Hepatocyte nuclear factor 3-beta, forkhead domain (FOXA2, Homo sapiens, UniProt Q9Y261, residues 142-269)
# Technique: protein-binding microarray
# Molecule type: double-stranded DNA, one strand shown
# Matrix: in vitro
# Concentration: not given
# Setting: k-mer, scored over probes, only values ≥0.25
# Direction: higher = stronger binding
# Residues (chain): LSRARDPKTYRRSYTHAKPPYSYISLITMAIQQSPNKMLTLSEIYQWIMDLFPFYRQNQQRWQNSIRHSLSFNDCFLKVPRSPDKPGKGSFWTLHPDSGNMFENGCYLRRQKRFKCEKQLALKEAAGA
Strand,E-score
GATGTGAA,0.275
ACATAGAC,0.266
CAGATGAA,0.283
ATGAATAC,0.253
GTACTACA,0.359
AGTAAATA,0.402
AACATATC,0.286
ATGTGAAG,0.277

# Further values, each from its own experiment
# Parent: viral docking peptide; KKAKRRLFTISDS
Substitution,target,assay,system,setting,scale,quantity,result
L7A,"CCND1, cyclin fold, Cln2 fusion (human)","yeast growth competition, sequencing",yeast,weak parent motif,"baseline: not given, higher = stronger binding",normalised enrichment score,-0.188

# A few entries again (study 1):
Strand,fluorescence intensity [a.u.]
CTACCGCACACGTGTCACGTGATAAGCACTCTTTTC,36500
